Experimental data from different studies.
Every numbered part comes from another study and shows a few of its results, in no order. Changes are numbered by the printed parent chain.

Block 1
Target: Ras GTPase-activating protein-binding protein 1, RRM domain (G3BP1, Homo sapiens, UniProt Q13283)
Chain of UniProt Q13283 (whole entry, looked up): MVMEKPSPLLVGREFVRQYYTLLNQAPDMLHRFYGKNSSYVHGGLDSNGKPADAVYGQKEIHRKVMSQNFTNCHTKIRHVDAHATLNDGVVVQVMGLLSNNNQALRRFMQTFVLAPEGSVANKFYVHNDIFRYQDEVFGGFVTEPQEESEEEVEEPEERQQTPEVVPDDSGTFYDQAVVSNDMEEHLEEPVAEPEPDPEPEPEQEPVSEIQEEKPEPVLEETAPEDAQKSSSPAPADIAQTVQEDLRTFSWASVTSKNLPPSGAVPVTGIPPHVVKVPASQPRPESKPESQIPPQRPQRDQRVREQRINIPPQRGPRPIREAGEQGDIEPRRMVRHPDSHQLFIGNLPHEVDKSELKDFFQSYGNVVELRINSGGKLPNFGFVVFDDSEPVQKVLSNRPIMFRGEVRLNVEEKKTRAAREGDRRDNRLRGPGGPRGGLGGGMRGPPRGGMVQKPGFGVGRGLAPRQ
Method: RNA Bind-n-Seq
Form: RNA
Sample: in vitro
Tested at: 1 µM
Setting: whole 134-nt RNA, ends assumed
Together with: 150 mM KCl
Reference: input library
Direction: higher = stronger binding
All sequences stand within: GGGAGUUCUACAGUCCGACGAUC … UGGAAUUCUCGGGUGUCAAGG
| Oligonucleotide | log2 enrichment |
| --- | --- |
| UGGGAGUUGGAUUUUGUUUAUUUUUUUAGCUCAUUUCCAGGGGUGGGAAUUUUUUUUUAAUAUGUGUCAUGAAUAAAGUUGUUUUUGAAA | 2.04 |
| GUCCUGUGCUACACAUCGUAUGUACCGAAUCGGGGAAAGGGGUGGGGUUUUUUUGGGGAAAGUAUUAUGUUACGCCGUUCGGAUCUGCAC | 0.885 |
| CAAGUCCUGUGCUACACAUCGUAUGUACCGAAUCGGGGAAAGGGGAAAGGAAAGGGAAAGUAUUAUGUUACGCCGUUCGGAUCUGCACUU | -0.291 |
| AGUCCUGUGCUACACAUCGUAUGUACCGAAUCGGGGAAAAAGGGGAAAGGGGUGGGGAAAGUAUUAUGUUACGCCGUUCGGAUCUGCACU | 0.885 |
| AGUCCUGUGCUACACAUCGUAUGUACCGAAUCGGGUUUUGGGGUUUUGGUUUUGGGGAAAGUAUUAUGUUACGCCGUUCGGAUCUGCACU | -0.0713 |
| GUCCUGUGCUACACAUCGUAUGUACCGAAUCGGGUUUGGGUUUUUGGGUUUUUUUGGGAAAGUAUUAUGUUACGCCGUUCGGAUCUGCAC | 0.221 |
| UCCUGUGCUACACAUCGUAUGUACCGAAUCAAACCCCCAAAUUUUUUUAAACCCCCAAAAAAGUAUUAUGUUACGCCGUUCGGAUCUGCA | -0.69 |
| CCUGUGCUACACAUCGUAUGUACCGAAUCGGGGAAAGGGGAAAAAAAGGGGAAAAAGGGGAAAGUAUUAUGUUACGCCGUUCGGAUCUGC | 0.591 |
| UUCAUUCCUUGGAAGAAGCUGUACCAUCGAUACCUGAUGAAUGAAGAGCAAGCUGUCAGCAAAGUGGACGGCAUCCUGUCUAACUGUGGC | -0.128 |
| AGUCCUGUGCUACACAUCGUAUGUACCGAAUCGGGGAAAAGGGAAAAGGGAAAAGGGAAAGUAUUAUGUUACGCCGUUCGGAUCUGCACU | 0.538 |
| GUCCUGUGCUACACAUCGUAUGUACCGAAUCGGGUUUUUGGGAAAAAAAGGGAAAGGGAAAGUAUUAUGUUACGCCGUUCGGAUCUGCAC | 0.0427 |
| AAGUCCUGUGCUACACAUCGUAUGUACCGAAUCGGGUUUGGGUUUUUGGGUUUGGGAAAGUAUUAUGUUACGCCGUUCGGAUCUGCACUU | 0.532 |
| CCUCAAGUCCUGUGCUACACAUCGUAUGUACCGAAUCGGGCGGGCGGGCGGGGAAAGUAUUAUGUUACGCCGUUCGGAUCUGCACUUCCA | 2.3 |
| CAAGUCCUGUGCUACACAUCGUAUGUACCGAAUCGGUUUUUGGAGGUUUUUUUGGAAAGUAUUAUGUUACGCCGUUCGGAUCUGCACUUC | -0.164 |

Block 2
Target: ABI1, truncated, D143A, DHFR fusion (Arabidopsis thaliana)
Method: DHFR PCA, deep sequencing
Sample: yeast
Setting: methotrexate growth selection, single substitutions
Together with: (+)-ABA 0.032 µM
Reference: wild-type fitted maximum
Direction: higher = stronger binding
Parent: PYL1, truncated, DHFR fusion (Arabidopsis thaliana); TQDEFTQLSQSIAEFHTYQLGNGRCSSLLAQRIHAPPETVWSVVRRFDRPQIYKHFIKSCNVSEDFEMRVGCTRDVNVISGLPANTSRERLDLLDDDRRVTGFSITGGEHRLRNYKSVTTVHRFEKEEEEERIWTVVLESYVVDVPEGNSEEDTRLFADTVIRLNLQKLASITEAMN
| Variant | relative binding score |
| --- | --- |
| F15K | 2.16% |
| Q2P | 57.1% |
| E109V | 5.41% |
| L166W | 2.01% |
| S87P | 4.69% |
| E130A | 31.9% |
| G102E | -2.83% |
| T101I | 77.5% |
| E147Q | 12.4% |
| V136T | 6.09% |
| S117A | 3.62% |
| P83Q | 13.9% |
| G21R | 19.4% |
| D96V | -3.58% |
| V40D | -6.07% |
| G23S | 16.7% |
| E130F | 11.8% |
| S26A | 13.5% |
| I12F | -1.23% |
| L112S | -0.38% |
| L169D | 0.616% |

Block 3
Target: RING finger protein unkempt homolog, zinc fingers 1-6, GST-SBP tag (UNK, Homo sapiens, UniProt Q9C0B0, residues 30-357)
Method: RNA Bind-n-Seq
Form: RNA
Sample: in vitro
Tested at: not given
Setting: RNA with constant flanks, human-mouse chimeric sites, ends assumed
Reference: input RNA pool
Direction: higher = stronger binding
All sequences stand within: GGGAGUUCUACAGUCCGACGAUC … CAACAGAGGAUUGAGCAUCA
Residues (chain): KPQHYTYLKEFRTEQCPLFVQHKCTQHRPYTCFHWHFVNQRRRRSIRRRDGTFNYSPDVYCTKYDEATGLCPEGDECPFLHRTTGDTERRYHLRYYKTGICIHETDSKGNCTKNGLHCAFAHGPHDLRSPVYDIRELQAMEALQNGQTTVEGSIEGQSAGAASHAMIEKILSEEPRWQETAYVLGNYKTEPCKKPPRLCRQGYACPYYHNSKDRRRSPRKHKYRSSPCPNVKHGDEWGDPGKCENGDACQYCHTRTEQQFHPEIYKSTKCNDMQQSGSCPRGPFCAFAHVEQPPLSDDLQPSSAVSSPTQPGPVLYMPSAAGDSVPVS
| Oligonucleotide | bound/input enrichment [ratio] |
| --- | --- |
| UUUCUAUUGCAGCAGACGAUGCUAAGAAUUAAGGAUCCUAAGAAGUCCCUGGAUUUUUAUACGAGGGUUCUUGGACUGACCCUCCUGCAGAAGCUUGACUUCCCUGCUAUGAAGUUCUCG | 0.295 |
| UCAGGAACCCAGACAAAUAUGAAUGUAAAUGAAGUCAUUAGCAACAGAGCAAUUGAAAUGUUAGGAGGUGAACUUGGCAGCAAGAAGCCUGUGCACCCCAACGAUCAUGUUAACAAAAGC | 0.512 |
| AUGGAACAUUUCGAUGCGUCACUCAGUACCUAUUUCAAGGCCUUCCUGGGCCCCCGAGAUACUAGAGUCAAAGGAUGGUUUCUUCUGGACAAUUACAUCCCUACGUUUGUCUGUUCUGUU | 0.0961 |
| CUGUGACUGAUGGCAGCUACCUGAGUGGCAGCUGAAGCACUUUUCUUCUCCUUGCCUGAACCCCCCCCCACUGCCCCCCCAUCCCCCAGUGUCGGCUGAGAUGUUGCCUCUGCACGGUUC | 0.962 |
| GGCUGCUACUAUUCUCCCUGGAGUGGCUGGAGUUCCCGCCGGAGCGCGGCCAGACUAAUUUUAGAAAAUGCCAAGUAGGAAGUUUGUCGAUGGUGAAGUGGUCAGAGGCCGAUGGCCUGG | 2.42 |
| CUGGCACUCUAUCAGAUAUAUUAAUUUUUUAAUGUAGAUGUAAUUUUAAAAAUGAAUGGCUAGUUUACACGUUUAACUAGGGUUUUACUACAUAUGUGUACAUAUGUAUAUAUAUAUAUA | 6.45 |
| UCCUUGGACCCCAGUCAUAUAGGUGACCUGCAAAAAGCAGACACCAGUAGUCAAGGUGCUUUAGUGUUUCUCUCAAAGGACUACGAGAUAGAAAAUCAAAAUCCUCUGGCCUCUCCUACG | 1.41 |
| GUGACAGGUGUUAAGAUUUCCCCUCAGCAAAGAAGUGCAGUAGUCACCAUAAUUCCAUCUGUGGUGAGUGCCAGUCAGAUAAAAGAGCUGGUCCCAGACCUCAGUUUAGACAUGGGAACU | 0.327 |
| CUUAAUGUUAAUAUUUUUGAAUAAAUGAAGCUAAAAUGUCUGCUUUUGGUACAACACGCAUUAGCGAAAGGUUAAGUUUUGUUUUCCACUGAAGUACUAUUUAACAUCUCAGAAAAAAAC | 0.941 |
| UAAAUUAGGGCUGCCGUCCGUUCUCACUCCCUGGGCUGCGGAAAGCCAGAAGAUUUUAUCUAGCUUAUACAAGGCUGCUGGUGUUCCCUCUUUUUUUCCACGAGGGUGUUUUUGGCUGCA | 0.558 |
| ACUCAGAGAUCCACCUCCCAAAGUGCUGGGAGUAAAGGUGUGGCCACUCAAUUCUCCUUGAUGGAUAUAUAUUUUUUCUCUUUUAUGUCUUCCUGUUCGUCCAGGGAAGAAAGAUUUGUU | 0.573 |

Block 4
Target: CCND2, cyclin fold, Cln2 fusion (human)
Method: yeast growth competition, sequencing
Sample: yeast
Setting: weak parent motif
Reference: not given
Direction: higher = stronger binding
Parent: AKAP12 docking peptide (human); GSPLKKLFTSTGL
| Variant | normalised enrichment score |
| --- | --- |
| G1A | 0.202 |
| K5A L7A | -0.237 |
| L4A | 0.0578 |
| G12A | -0.251 |
| K5A | -0.164 |
| S10A | 0.07 |
| K5R F8L | -0.54 |
| L13A | 0.293 |
| K5R | 0.207 |
| K6A | -0.026 |

Block 5
Target: Histone acetyltransferase KAT6A, winged helix 1, GST fusion (KAT6A, Homo sapiens, UniProt Q92794, residues 1-85)
Method: protein binding microarray
Form: double-stranded DNA, one strand shown
Sample: in vitro
Tested at: not given
Setting: 8-mer, flanks averaged, mean of 2 arrays, mostly near background
Reference: not given
Direction: higher = stronger binding
Residues (chain): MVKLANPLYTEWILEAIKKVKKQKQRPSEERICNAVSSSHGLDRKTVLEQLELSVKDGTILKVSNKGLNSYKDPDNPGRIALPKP
| Oligonucleotide | E-score |
| --- | --- |
| GGCTAATA | 0.0575 |
| AATAGTAC | 0.0472 |
| CTGGTTAA | -0.195 |
| AGGGGTCA | -0.256 |
| CGTAAGTC | 0.032 |
| CTTCTTCA | -0.0785 |
| CCGATGCA | 0.0509 |
| GTGCGGGA | 0.373 |
| ATCTGCTA | -0.247 |
| CCCTTAGC | 0.137 |
| ATCTACAC | -0.191 |
| CTCGCCCC | 0.0366 |
| AGTAGTTA | -0.0174 |
| AAGGTGGA | -0.188 |
| AGGCGCGC | 0.435 |
| ACTAGCAT | -0.0242 |
| ACACGCGT | 0.275 |
| CTTCTGTA | -0.151 |
| TCTCAAGA | -0.171 |
| GATGGTAA | -0.156 |
| CCGCCTAC | 0.127 |
| AACCGCGA | 0.243 |
| AAATTCAA | -0.139 |
| CCACCTCG | -0.13 |
| ATAGCAGC | -0.194 |

Mixed results
| Molecule | target | assay | system | setting | how to read | endpoint | result |
| --- | --- | --- | --- | --- | --- | --- | --- |
| PhoQ, residues 284 288 289 292 302 303 HSYLQF | PhoP, residues 12 14 15 18 19 LHHSG (Escherichia coli, UniProt P23836) | Sort-seq, refers to: YFP reporter | E. coli | PhoQ-PhoP variant library, together with: 10 µM Mg2+ | reference: high Mg2+ state, higher = stronger signaling | fold induction | 22 |

Repeated from above (block 1):
| Oligonucleotide | log2 enrichment |
| --- | --- |
| CAAGUCCUGUGCUACACAUCGUAUGUACCGAAUCGGUUUUUGGAGGUUUUUUUGGAAAGUAUUAUGUUACGCCGUUCGGAUCUGCACUUC | -0.164 |
| AGUCCUGUGCUACACAUCGUAUGUACCGAAUCGGGGAAAAGGGAAAAGGGAAAAGGGAAAGUAUUAUGUUACGCCGUUCGGAUCUGCACU | 0.538 |
| GUCCUGUGCUACACAUCGUAUGUACCGAAUCGGGUUUGGGUUUUUGGGUUUUUUUGGGAAAGUAUUAUGUUACGCCGUUCGGAUCUGCAC | 0.221 |
| UGGGAGUUGGAUUUUGUUUAUUUUUUUAGCUCAUUUCCAGGGGUGGGAAUUUUUUUUUAAUAUGUGUCAUGAAUAAAGUUGUUUUUGAAA | 2.04 |
| CCUCAAGUCCUGUGCUACACAUCGUAUGUACCGAAUCGGGCGGGCGGGCGGGGAAAGUAUUAUGUUACGCCGUUCGGAUCUGCACUUCCA | 2.3 |
| AGUCCUGUGCUACACAUCGUAUGUACCGAAUCGGGGAAAAAGGGGAAAGGGGUGGGGAAAGUAUUAUGUUACGCCGUUCGGAUCUGCACU | 0.885 |
| AGUCCUGUGCUACACAUCGUAUGUACCGAAUCGGGUUUUGGGGUUUUGGUUUUGGGGAAAGUAUUAUGUUACGCCGUUCGGAUCUGCACU | -0.0713 |
| UCCUGUGCUACACAUCGUAUGUACCGAAUCAAACCCCCAAAUUUUUUUAAACCCCCAAAAAAGUAUUAUGUUACGCCGUUCGGAUCUGCA | -0.69 |
| AAGUCCUGUGCUACACAUCGUAUGUACCGAAUCGGGUUUGGGUUUUUGGGUUUGGGAAAGUAUUAUGUUACGCCGUUCGGAUCUGCACUU | 0.532 |
| CCUGUGCUACACAUCGUAUGUACCGAAUCGGGGAAAGGGGAAAAAAAGGGGAAAAAGGGGAAAGUAUUAUGUUACGCCGUUCGGAUCUGC | 0.591 |
| GUCCUGUGCUACACAUCGUAUGUACCGAAUCGGGGAAAGGGGUGGGGUUUUUUUGGGGAAAGUAUUAUGUUACGCCGUUCGGAUCUGCAC | 0.885 |
